Experimental data of several laboratories.
Lines come from different studies, so protocols differ. Several values in a cell are separate wells, animals, samples, runs or records. ± marks the error that the study gave.
Sigma-2 receptor/TMEM97: Sigma-2 receptor/TMEM97 (Cavia porcellus, UniProt H0V073)
Oprm1: Mu-type opioid receptor (Oprm1, Mus musculus, UniProt P42866)
SIGMAR1: Sigma non-opioid intracellular receptor 1 (SIGMAR1, Cavia porcellus, UniProt Q60492)

| Structure (SMILES) | target or system | assay | system | conditions | scale | measurement | result |
| --- | --- | --- | --- | --- | --- | --- | --- |
| c1ccc2sc(C3(N4CCCCC4)CCCCC3)cc2c1 | Trypanothione reductase (TPR, Trypanosoma brucei brucei, UniProt P39051) | competitive inhibitor, DTNB-coupled | Trypanosoma brucei | pH 7.4, with: trypanothione disulfide |  | Ki | 1 ± 0.08 µM |
| C[C@H]1CN(C[C@H]2Cc3ccccc3CN2)CC[C@@]1(C)c1cccc(O)c1 | Mu-type opioid receptor (OPRM1, Homo sapiens, UniProt P35372) | ligand displacement, radioligand |  |  |  | Ki | 0.001 µM and 0.00098 µM |
| O=Cc1cc(O)c(O)cc1O | 1-deoxy-D-xylulose-5-phosphate synthase (dxs, Escherichia coli, UniProt P77488) | inhibitor |  | with: 2.0 mM ascorbic acid |  | Ki | > 75 µM |
| O=C(O)C[C@H]1CCN[C@@H]1C(=O)O | Glutamate receptor ionotropic, kainate 2 (Grik2, Rattus norvegicus, UniProt P42260) | binding, radioligand displacement | Sf9 cells expressing homomeric receptor | with: [3H]kainate |  | Ki | 2.2 µM |
| Nc1nc(Cl)nc2c1ncn2[C@H]1C[C@H](O)[C@@H](CO)O1 | Adenosine receptor A1 (ADORA1, Homo sapiens, UniProt P30542) | ligand displacement, radioligand |  | cell membranes |  | Ki | 1.57 µM |
| COc1cc(O)c2c(O)c3c(=O)cc(C)oc3cc2c1 | Amine oxidase [flavin-containing] A (MAOA, Homo sapiens, UniProt P21397) | inhibitor |  | competitive, free enzyme |  | Ki | 4.92 µM |
| O=C(c1ccc(O)cc1)c1c(-c2ccc(O)cc2)sc2cc(O)ccc12 | Estrogen receptor beta (ESR2, Homo sapiens, UniProt Q92731) | ligand displacement, radioligand |  |  |  | Ki | 0.00147 µM |
| O=C(O)C1CCCC1 | putA, PRODH domain (Escherichia coli, UniProt P09546) | competitive inhibitor |  | pH 7.5, room temperature, with: L-proline |  | Ki | 6300 ± 700 µM |
| CN[C@@](C)(C[18F])C(=O)O | MDA-MB-468 tumour model |  | host not given, kidney | 30 min, tumour-bearing |  | tracer uptake | 11 %ID/g |
| NC(=O)CC[C@H](N)C(=O)O | anandamide membrane transporter, mouse | [3H]anandamide uptake, non-competitive inhibitor | mouse brain synaptosomes |  |  | Ki | 0.97 ± 0.08 µM |
| CCCCCCCC(=O)Nc1ccc(C=Cc2ccc(NC(=O)CCCCCCC)cc2S(=O)(=O)O)c(S(=O)(=O)O)c1 | H(+)/Cl(-) exchange transporter ClcA (clcA, Escherichia coli, UniProt P37019) |  |  |  |  | Ki | 3 µM and ~3 µM |
| O=C(O)c1cc(NC(=O)c2ccccc2)cc([C@H]2CCN[C@@H]2C(=O)O)c1 (racemic) | Glutamate receptor ionotropic, kainate 1 (Rattus norvegicus, UniProt P22756) | ligand displacement, radioligand |  | cell membranes |  | Ki | 18.5 µM |
| Nc1ccn([C@H]2C[C@H](O)[C@@H](COP(=O)(O)NP(=O)(O)OP(=O)(O)O)O2)c(=O)n1 | Deoxynucleoside triphosphate triphosphohydrolase SAMHD1 (SAMHD1, Homo sapiens, UniProt Q9Y3Z3) | enzyme activity, inhibitor |  | with: dTTP 100 µM |  | Ki | 0.045 ± 0.0053 µM |
| COP(=O)(O)C(C)=O | 1-deoxy-D-xylulose-5-phosphate synthase (dxs, Escherichia coli, UniProt P77488, H49N) | enzyme activity, inhibitor |  | with: D-GAP 500 µM, pyruvate 2 mM |  | Ki | 167 µM |
| CN(CCc1ccc(Cl)c(Cl)c1)CCN1CCCC1 | Sigma-2 receptor/TMEM97 | binding | guinea pig brain | low-affinity site, two-site fit, with: [3H]DTG 3 nM with (+)-pentazocine 200 nM |  | Ki | 20.5 µM |
| O=C(/C=C/c1ccoc1)N[C@H]1CC[C@@]2(O)[C@H]3Cc4cccc5c4[C@@]2(CCN3CC2CC2)[C@H]1O5 | Oprm1 | ligand displacement, radioligand |  |  |  | Ki | 0.0873 µM |
| O=C(NCCCc1c[nH]cn1)NC(=O)c1ccccc1 | Histamine H4 receptor (HRH4, Homo sapiens, UniProt Q9H3N8) | ligand displacement, radioligand |  | cell membranes |  | Ki | 5.25 µM |
| O=[As](O)(O)O | Triosephosphate isomerase, glycosomal (Trypanosoma brucei brucei, UniProt P04789, I172V) | inhibitor |  | pH 7.5, 25 °C, ionic strength 0.1, with: DHAP substrate |  | Ki | 4500 µM |
| c1ccc(CCN2CCCCC2)cc1 | Sigma non-opioid intracellular receptor 1 (Sigmar1, Rattus norvegicus, UniProt Q9R0C9) | radioligand binding | rat liver membranes | with: [3H](+)-pentazocine 5 nM |  | Ki | 0.0743 ± 0.0021 µM |
| O=C(/C=C/c1ccoc1)N[C@H]1CC[C@@]2(O)[C@H]3Cc4ccc(O)c5c4[C@@]2(CCN3CC2CC2)[C@H]1O5 | Delta-type opioid receptor (Oprd1, Mus musculus, UniProt P32300) | binding, radioligand displacement |  | with: [3H]diprenorphine |  | Ki | 0.02 ± 0.0033 µM |

| Structure (SMILES) | target or system | assay | system | conditions | scale | measurement | result |
| --- | --- | --- | --- | --- | --- | --- | --- |
| CCCCCCCCCCCCCCCCCCN | SIGMAR1 | ligand displacement, radioligand |  |  |  | Ki | 8.5 µM |
| CCCSC[C@H]1O[C@@H](n2cnc3c2N=CNC[C@H]3O)C[C@@H]1O | MTA/SAH deaminase (Pseudomonas aeruginosa, UniProt Q9HZ64) | inhibitor |  | pH 7.4, 25 °C, with: MTA 100 µM |  | Ki | 6.7e-05 ± 5e-06 µM |
| CCCCN1C(=O)C(C=CC=CC=C2C(=O)N(c3ccc(S(=O)(=O)O)cc3)N=C2C)C(=O)N(CCCC)C1=O | SLC4A1 (Homo sapiens, UniProt P02730) | chloride exchange, 36Cl flux, item: inward-facing unloaded transporter |  | 0 °C, Dixon plot, initial binding |  | Ki | 1.6 ± 0.4 µM |
| CC[C@]1(C(=O)O)C[C@H]1[C@H](N)C(=O)O.Cl | kainate receptor, rat | [3H]kainate displacement | cortical synaptosomes |  |  | Ki | 0.61 µM |
| O=P(O)(O)Oc1cccc(OP(=O)(O)O)c1 | Signal transducer and activator of transcription 5A, SH2 (Homo sapiens, UniProt P42229) | ligand displacement, FP |  |  |  | Ki | 24 µM |
| C[C@H]1CNCCc2ccc(Cl)cc21 |  |  | male Sprague-Dawley rat, plasma | subcutaneous, pimavanserin 1 + lorcaserin 1 mg/kg, pimavanserin 15 min earlier |  | AUC(0-inf) | 52.8 ± 2.84 ng·h/mL |
| [123I]c1cncc(OC[C@@H]2CCN2)c1 |  | SPECT | human, parietal lobe | intravenous bolus, 8.6 mCi | relative to: tissue over plasma | tissue/plasma ratio | 11.8 |
| CCCCCCCCCCCCC/C=C/[C@@H](O)[C@H](CO)N(C)C | SIGMAR1 | ligand displacement, radioligand |  | cell membranes |  | Ki | 2.9 µM |
| CCCCCCCC(=O)O[C@H]1/C(=C/C(=O)OC)C[C@H]2C[C@H]([C@@H](C)O)OC(=O)CCCC(=O)OCC(C)(C)[C@]1(O)O2 | Protein kinase C beta type, isoform beta-I (PRKCB, Homo sapiens, UniProt P05771) | binding, radioligand competition |  | with: [3H]PDBu |  | Ki | 0.184 µM |
| c1ccc(CCN2CCCCC2)cc1 | Sigma intracellular receptor 2 (Tmem97, Rattus norvegicus, UniProt Q5U3Y7) | ligand displacement, radioligand |  |  |  | Ki | 0.138 µM |
| CCCN(CCC1(O)CC(NS(=O)(=O)c2ccccc2)C1)[C@H]1CCc2nc(N)sc2C1 (stereo in doubt) | dopamine D2-like receptor, rat | radioligand binding | rat striatal membranes | high-affinity component, with: [3H]spiperone |  | Ki | 0.081 ± 0.011 µM |
| N#Cc1ccc(-c2ccc(-c3cccs3)o2)c(F)c1 | Salmonella enterica |  | TA1535 | 10 µM, 48 h, with: sodium azide after pre-exposure | relative to: sodium azide alone | mutant frequency | 35% |
| CCCC[C@H](NC=O)C(=O)N[C@@H](CC(C)C)C(=O)N[C@@H](Cc1ccccc1)C(=O)O | fMet-Leu-Phe receptor (FPR1, Homo sapiens, UniProt P21462, N192K) | binding, inhibitor |  |  |  | Ki | 0.062 ± 0.008 µM |
| CC[C@H](C)CCCCC(=O)N[C@@H](CCN)C(=O)N[C@H](C(=O)N[C@@H](CCN)C(=O)N[C@H]1CCNC(=O)[C@H]([C@@H](C)O)NC(=O)[C@H](CCN)NC(=O)[C@H](CCN)NC(=O)[C@H](CC(C)C)NC(=O)[C@@H](CC(C)C)NC(=O)[C@H](CCN)NC1=O)[C@@H](C)O | lipopolysaccharide | binding, displacement | Escherichia coli |  |  | Ki | 0.8 ± 0.1 µM |
| CN(C)CCN(C)CCc1ccc(Cl)c(Cl)c1 | Sigma-2 receptor/TMEM97 | binding | guinea pig brain | low-affinity site, two-site fit, with: [3H]DTG 3 nM with (+)-pentazocine 200 nM |  | Ki | 55.3 µM |
| O=C(O)COP(=O)(O)O | Triosephosphate isomerase, glycosomal (Trypanosoma brucei brucei, UniProt P04789) | enzyme activity, competitive inhibitor |  | extrapolated, Glu-167 fully protonated, with: glyceraldehyde 3-phosphate |  | Ki | ~0.012 µM |
| COc1cc(O)c2c(c1)oc(=O)c1c3cc(O)c(O)cc3oc21 | Genome polyprotein, NS5B polymerase (Hepatitis C virus genotype 1b, UniProt P26663) | RNA polymerase activity, noncompetitive inhibitor vs UTP |  | with: UTP 2.5 to 80 µM varied, poly rA/U12 0.25 µM |  | Ki | 8.4 µM |
| CN(C(=O)/C=C/c1ccoc1)[C@@H]1CC[C@@]2(O)[C@H]3Cc4cccc5c4[C@@]2(CCN3CC2CC2)[C@H]1O5 | Oprm1 | ligand displacement, radioligand |  |  |  | Ki | 0.123 µM |
| N=C(N)c1ccc(-c2ccc(-c3ccco3)o2)cc1F | Salmonella enterica | sodium azide mutagenicity | TA1535 | 10 µM, 48 h, with: sodium azide 2 µg/plate after pre-exposure |  | inhibition | 10% |

A few entries again:
| Structure (SMILES) | target or system | assay | system | conditions | scale | measurement | result |
| --- | --- | --- | --- | --- | --- | --- | --- |
| CCCCN1C(=O)C(C=CC=CC=C2C(=O)N(c3ccc(S(=O)(=O)O)cc3)N=C2C)C(=O)N(CCCC)C1=O | SLC4A1 (Homo sapiens, UniProt P02730) | chloride exchange, 36Cl flux, item: inward-facing unloaded transporter |  | 0 °C, Dixon plot, initial binding |  | Ki | 1.6 ± 0.4 µM |
| CC[C@]1(C(=O)O)C[C@H]1[C@H](N)C(=O)O.Cl | kainate receptor, rat | [3H]kainate displacement | cortical synaptosomes |  |  | Ki | 0.61 µM |
